Assay results pooled from the literature.
Each line is one published result; not all experiments were run side by side.

CC(=O)N(C)[C@H]1CCN(C(=O)c2cnc3c(c2)C[C@](C)(c2ccc(F)cc2)N3)C1 — time for most urinary excretion (male humans, urine; oral, dose not given): ≤ 24 h
CCCCCCCCCCCCCCCC(=O)N[C@@H](CCC(=O)NCCCC[C@@H]1NC(=O)[C@H]([C@@H](C)CC)NC(=O)[C@@H](NC(=O)[C@@H]2CCCN2C(=O)[C@H](Cc2ccccc2)NC(=O)[C@H](Cc2c[nH]cn2)NC(=O)[C@@H](NC(=O)[C@H](CC(=O)O)NC(=O)CC(C)C)[C@@H](C)O)CSSC[C@@H](C(=O)N[C@@H](CCCCN)C(N)=O)NC(=O)CNC(=O)[C@H](CCCCN)NC(=O)[C@H](CO)NC(=O)[C@H](CCCNC(=N)N)NC(=O)[C@@H]2CCCN2C(=O)[C@H](CCC(=O)O)NC(=O)[C@H](Cc2ccccc2)NC1=O)C(=O)O — time of first detected concentration (healthy human, plasma; subcutaneous, dose not given, first sampling 1 h): ≤ 1 h
C[C@@H](N)C1CCN(S(=O)(=O)c2cccc3cnccc23)CC1 — time quantifiable in plasma (human, plasma; oral, 150 mg, fed): ≤ 12 h
C=CC(=O)NC1CCN(c2ncc3ncnc(Nc4ccc(Oc5ccc6c(c5)ncn6C)c(C)c4)c3n2)CC1 — time quantifiable in plasma (human, male, plasma; oral, 240 mg, fed and fasted; up to): ≤ 120 h
O=C(O)CCC(=O)O.[2H]C([2H])([2H])Oc1cc(C)c2[nH]ccc2c1CN1CC[C@@H](C2CC2)C[C@H]1c1ccc(C(=O)O)cc1 — time to steady state (human, plasma; multiple ascending dose): ~7 days
CN[C@@H]1COc2c(S(=O)(=O)NC(=O)Nc3c4c(cc5c3CCC5)CCC4)cnn2C1 — time to resolution of liver injury (human; oral, dose not given): ≤ 87 days
CO[C@@H]1[C@H](OC(=O)N2CC(CCN3CCOCC3)C2)CC[C@]2(CO2)[C@H]1[C@@]1(C)O[C@@H]1CC=C(C)C — time to non-quantifiable plasma level (human, plasma; subcutaneous, 0.2 mg, single dose): ≤ 4 h
C[C@H]1CO[C@@H]2Cn3cc(C(=O)NCc4ccc(F)cc4F)c(=O)c(O)c3C(=O)N12 — time to injection-site reaction onset (human patients, all-treated set; intramuscular, dose not given, long-acting injection with rilpivirine LA, median): 1 days
CNC(=O)c1cc(Oc2ccc(NC(=O)Nc3ccc(Cl)c(C(F)(F)F)c3)cc2)ccn1 — time to second Cmax (human; dose not given, most patients): 8 to 24 h
C[C@@H](N)C1CCN(S(=O)(=O)c2cccc3c(=O)[nH]ccc23)CC1 — time quantifiable in plasma (human, plasma; oral, 25 to 250 mg, fasted): ≤ 48 h
NC(=O)NC1CCC(CCN2CCN(c3cccc(Cl)c3Cl)CC2)CC1 (centres unmarked) — time to steady state (human; dose not given, cariprazine alone): ≤ 28 days
CN1C(=O)[C@@H](NC(=O)c2nnc(Cc3ccccc3)[nH]2)COc2cccnc21 — time quantifiable in plasma (human, both sexes, plasma; oral, 10 mg single): ≤ 48 h
CNC(=O)NC1CCC(CCN2CCN(c3cccc(Cl)c3Cl)CC2)CC1 (centres unmarked) — time to steady state (human; dose not given, cariprazine alone): ≤ 28 days
NC(=S)NN=Cc1ncccc1N — time above active level (human, plasma; oral, dose not given): 2 to 6 h

Some of these lines once more:
CNC(=O)NC1CCC(CCN2CCN(c3cccc(Cl)c3Cl)CC2)CC1 (centres unmarked) — time to steady state (human; dose not given, cariprazine alone): ≤ 28 days
NC(=S)NN=Cc1ncccc1N — time above active level (human, plasma; oral, dose not given): 2 to 6 h
